Assay results collected from several papers.
Each line is one published result; not all experiments were run side by side.
Organism: Escherichia coli

Compound | test | test system | conditions | how to read | MIC
CC(C)Oc1c(NC(=O)c2ccc(NC(=O)[C@H](CC(N)=O)NC(=O)c3ccc(NC(=O)c4ccc(C#N)cc4)cc3)cc2)ccc(C(=O)Nc2ccc(C(=O)O)cc2)c1O | – | K12 ΔtolC | – | – | 0.06 µg/mL
CC[C@H](C)[C@H](NC(=O)[C@H](CCCNC(=N)N)NC(=O)[C@H](Cc1ccc(O)cc1)NC(=O)CNC(=O)[C@H](Cc1ccc(O)cc1)NC(=O)[C@H](CCCNC(=N)N)NC(=O)[C@H](CC(C)C)NC(=O)[C@H](C)NC(=O)[C@H](CCC(N)=O)NC(=O)[C@H](CCC(=O)O)NC(=O)[C@@H](NC(=O)[C@H](CCC(N)=O)NC(=O)[C@H](CCCNC(=N)N)NC(=O)[C@H](CCSC)NC(=O)[C@H](Cc1ccc(O)cc1)NC(=O)[C@H](CCC(N)=O)NC(=O)[C@@H](N)CCCNC(=N)N)[C@@H](C)CC)C(=O)N[C@@H](CO)C(=O)N[C@@H](CCCNC(=N)N)C(=O)N[C@@H](CCCNC(=N)N)C(N)=O | broth dilution | K12 BW25113 | – | – | 5.9 µM
CC[C@H](C)[C@H](N)C(=O)N[C@@H](CC(C)C)C(=O)NCC(=O)N[C@H](CCCCN)C(=O)N[C@H](C(=O)N[C@@H](Cc1c[nH]c2ccccc12)C(=O)N[C@@H](CCCCN)C(=O)NCC(=O)N[C@H](C(=O)N[C@@H](CCCCN)C(=O)N[C@@H](CC(=O)O)C(=O)N[C@H](C(=O)N[C@@H](CC(C)C)C(N)=O)[C@@H](C)CC)[C@@H](C)CC)[C@@H](C)CC | broth microdilution | ATCC 25922, Mueller-Hinton broth | 16 h, 37 °C | – | 25 µM
CC(C)(O/N=C(\C(=O)N[C@@H]1C(=O)N2C(C(=O)[O-])=C(C[n+]3ccccc3)CS[C@H]12)c1csc(N)n1)C(=O)O | – | DH5α cloned blaKPC-144 | – | – | 32 µg/mL
CC[C@H](C)[C@H](NC(=O)CN)C(=O)NCC(=O)N[C@@H](C)C(=O)N[C@H](C(=O)N[C@@H](CC(C)C)C(=O)N[C@@H](CCCCN)C(=O)N[C@H](C(=O)N[C@@H](CC(C)C)C(=O)N[C@H](C(=O)N[C@H](C(=O)NCC(=O)N[C@@H](CC(C)C)C(=O)N1CCC[C@H]1C(=O)N[C@@H](C)C(=O)N[C@@H](CC(C)C)C(=O)N[C@H](C(=O)N[C@@H](CO)C(=O)N[C@@H](Cc1c[nH]c2ccccc12)C(=O)N[C@H](C(=O)N[C@@H](CCCCN)C(=O)N[C@@H](CCCNC(=N)N)C(=O)N[C@@H](CCCCN)C(=O)N[C@@H](CCCNC(=N)N)C(=O)N[C@@H](CCC(N)=O)C(=O)N[C@@H](CCC(N)=O)C(N)=O)[C@@H](C)CC)[C@@H](C)CC)[C@@H](C)O)[C@@H](C)O)C(C)C)C(C)C | – | NCCP 16046 carbapenem-resistant | – | – | 8 µM
CC[C@H](C)[C@H](NC(=O)[C@H](CC(C)C)NC(=O)[C@@H](NC(=O)[C@H](CCCNC(=N)N)NC(=O)[C@H](CCCNC(=N)N)NC(=O)[C@H](CCCNC(=N)N)NC(=O)[C@@H](N)CCCNC(=N)N)[C@@H](C)CC)C(=O)N[C@@H](CCCCN)C(=O)N[C@@H](CCCCN)C(=O)N[C@H](C(=O)N[C@@H](CC(C)C)C(=O)N[C@@H](CCCCN)C(=O)N[C@@H](CC(C)C)C(=O)N[C@@H](CCCCN)C(=O)N[C@@H](CO)C(=O)N[C@@H](CO)C(=O)N[C@@H](C)C(=O)N[C@@H](Cc1ccc(O)cc1)C(N)=O)C(C)C | checkerboard | – | 24 h, 37 °C, alone, rifampicin plate | – | 32 µM
CC[C@@H](C)[C@@H](N)C(=O)N[C@@H](C(=O)N[C@H](Cc1ccc(O)cc1)C(=O)N[C@@H](C(=O)N[C@H](CCN)C(=O)N[C@H](CC(C)C)C(=O)N[C@H](CO)C(=O)N[C@H](CCN)C(=O)N[C@@H](C(=O)N[C@H](CCN)C(=O)N[C@H](Cc1c[nH]cn1)C(=O)N[C@H](CCN)C(=O)N[C@H](C)C(=O)N[C@H](CCN)C(=O)N[C@H](CCN)C(N)=O)[C@H](C)CC)[C@H](C)CC)[C@H](C)CC | broth microdilution | CDC 0015, Mueller-Hinton broth | – | – | 4 µg/mL
CC[C@H](C)[C@H](NC(=O)CNC(=O)[C@H](CC(=O)O)NC(=O)[C@H](CCCNC(=N)N)NC(=O)[C@@H](NC(=O)[C@H](CC(N)=O)NC(=O)[C@H](CCCNC(=N)N)NC(=O)CNC(=O)[C@@H](NC(=O)[C@H](CCCCN)NC(=O)[C@H](CCCNC(=N)N)NC(=O)[C@@H](NC(=O)[C@H](CCCCN)NC(=O)[C@H](CCCCN)NC(=O)[C@H](Cc1ccccc1)NC(=O)[C@@H](NC(=O)[C@H](CCCCN)NC(=O)[C@H](Cc1c[nH]c2ccccc12)NC(=O)[C@@H](N)CCCNC(=N)N)[C@@H](C)CC)[C@@H](C)CC)C(C)C)C(C)C)C(=O)N[C@H](C(=O)N[C@@H](CCCCN)C(=O)N[C@@H](C)C(=O)NCC(=O)N1CCC[C@H]1C(=O)N[C@@H](C)C(=O)N[C@H](C(=O)N[C@@H](C)C(=O)N[C@H](C(=O)N[C@H](C(=O)NCC(=O)N[C@@H](CCC(N)=O)C(=O)N[C@@H](C)C(=O)N[C@@H](C)C(=O)N[C@H](C(=O)N[C@H](C(=O)N[C@H](C(=O)N[C@@H](CCCCN)C(N)=O)C(C)C)C(C)C)[C@@H](C)O)C(C)C)C(C)C)C(C)C)[C@@H](C)CC | – | K1 ATCC 700973, Mueller-Hinton broth | 16 h, 37 °C | growth inhibition over 99% | 2 µM
CC[C@H](C)[C@H](NC(=O)CNC(=O)[C@H](C)NC(=O)[C@@H](NC(=O)[C@@H](NC(=O)[C@@H](NC(=O)[C@H](CCCNC(=N)N)NC(=O)[C@@H](NC(=O)[C@@H](NC(=O)[C@@H](NC(=O)[C@@H]1CCCN1C(=O)[C@H](Cc1c[nH]c2ccccc12)NC(=O)[C@@H](NC(=O)[C@H](CCCNC(=N)N)NC(=O)[C@H](CCCCN)NC(=O)[C@@H](NC(=O)[C@@H](N)CCCNC(=N)N)[C@@H](C)CC)C(C)C)C(C)C)C(C)C)[C@@H](C)CC)[C@@H](C)O)C(C)C)C(C)C)C(=O)N[C@@H](CC(N)=O)C(=O)N[C@@H](CC(C)C)C(=O)N[C@@H](Cc1ccc(O)cc1)C(=O)N[C@@H](CCCNC(=N)N)C(=O)N[C@@H](C)C(=O)N[C@H](C(=O)N[C@@H](CCCCN)C(=O)N[C@@H](CCCNC(=N)N)C(=O)N[C@@H](CCCCN)C(=O)O)[C@@H](C)CC | broth microdilution | ATCC 25922, Mueller-Hinton broth | 16 to 20 h, 37 °C | – | 1.41 µM
CC[C@H](C)[C@H](NC(=O)[C@H](CCCCN)NC(=O)[C@H](CCCCN)NC(=O)CNC(=O)[C@H](CCCCN)NC(=O)[C@H](CC(C)C)NC(=O)[C@H](CCCCN)NC(=O)[C@H](CCCNC(=N)N)NC(=O)[C@@H](NC(=O)[C@H](CC(C)C)NC(=O)[C@H](CCCNC(=N)N)NC(=O)[C@@H](N)CCCNC(=N)N)[C@@H](C)CC)C(=O)N[C@@H](Cc1ccc(O)cc1)C(=O)N[C@@H](CC(C)C)C(=O)N[C@@H](Cc1ccc(O)cc1)C(=O)N[C@@H](Cc1ccccc1)C(=O)N[C@@H](CCCCN)C(=O)N[C@@H](CC(C)C)C(=O)N[C@@H](CCC(N)=O)C(=O)N[C@@H](CC(C)C)C(=O)N[C@@H](CC(C)C)C(=O)N[C@@H](CCCCN)C(=O)N[C@@H](CCCCN)C(N)=O | – | KCTC 1682, Mueller-Hinton broth | together with: 150 mM NaCl | – | 16 µM
COc1c(N2CC3CCCNC3C2)c(F)cc2c(=O)c(C(=O)OCc3cnc([N+](=O)[O-])s3)cn(C3CC3)c12 (centres unmarked) | – | NR 48983, fluoroquinolone-resistant | – | – | > 97 µM
CC[C@H](C)CCCCC(=O)N[C@@H](CCN)C(=O)N[C@H](C(=O)N[C@@H](CCN)C(=O)N[C@H]1CCNC(=O)[C@H]([C@@H](C)O)NC(=O)[C@H](CCN)NC(=O)[C@H](CCN)NC(=O)[C@H](CC(C)C)NC(=O)[C@@H](Cc2ccccc2)NC(=O)[C@H](CCN)NC1=O)[C@@H](C)O | broth microdilution | ATCC 25922, Mueller-Hinton broth | – | – | 2 µg/mL
CCCCCCC/C=C/C(=O)N1C(=O)/C(=C(\O)c2ccccc2)C(=O)C1CC(C)C (centres unmarked) | – | K12 ΔtolC | – | – | 1.56 µg/mL
CC[C@H](C)[C@H](NC(=O)CN)C(=O)N[C@@H](CC(C)C)C(=O)N[C@@H](CC(=O)O)C(=O)N[C@@H](C)C(=O)N[C@H](C(=O)N[C@@H](CCCCN)C(=O)N[C@@H](C)C(=O)N[C@H](C(=O)N[C@@H](C)C(=O)N[C@@H](CCCCN)C(=O)N[C@@H](C)C(=O)N[C@H](C(=O)N[C@@H](CCCCN)C(=O)N[C@@H](C)C(=O)N[C@@H](CCCCN)C(=O)N[C@@H](C)C(=O)NCC(N)=O)[C@@H](C)CC)[C@@H](C)CC)[C@@H](C)CC | – | ATCC 25922, Mueller-Hinton broth | 12 h, 37 °C | – | 8 µg/mL
CC[C@H](C)[C@H](NC(=O)[C@H](CC(C)C)NC(=O)[C@H](CCCCN)NC(=O)[C@H](CC(C)C)NC(=O)CNC(=O)[C@@H](NC(=O)[C@H](CO)NC(=O)[C@@H](NC(=O)[C@@H](NC(=O)[C@H](CCC(N)=O)NC(=O)[C@H](Cc1c[nH]c2ccccc12)NC(=O)[C@H](CCCNC(=N)N)NC(=O)[C@H](CC(N)=O)NC(=O)[C@H](CCCNC(=N)N)NC(=O)[C@H](CCCNC(=N)N)NC(=O)[C@@H](NC(=O)[C@H](Cc1ccccc1)NC(=O)[C@H](CCCNC(=N)N)NC(=O)CNC(=O)[C@H](C)NC(=O)[C@H](CCCNC(=N)N)NC(=O)[C@H](CCCNC(=N)N)NC(=O)[C@H](CCCCN)NC(=O)[C@H](Cc1ccccc1)NC(=O)[C@H](CCCNC(=N)N)NC(=O)CNC(=O)[C@H](Cc1c[nH]c2ccccc12)NC(=O)[C@H](CCCNC(=N)N)NC(=O)CNC(=O)[C@H](CCCNC(=N)N)NC(=O)[C@@H](N)[C@@H](C)O)[C@@H](C)CC)[C@@H](C)CC)[C@@H](C)CC)[C@@H](C)O)C(=O)NCC(=O)O | – | ATCC 25922 | highest concentration 50 µM | – | 0.6 µM
CC1(C)S[C@@H]2[C@H](NC(=O)Cc3ccccc3)C(=O)N2[C@H]1C(=O)O | – | BL21(DE3) wild type | – | – | 31.2 µg/mL
CC1(C)SC2C(NC(=O)C(NC(=O)C3=C(O)C(Cc4ccsc4)NC3=O)c3ccccc3)C(=O)N2C1C(=O)O (centres unmarked) | broth microdilution | Keio mutant JW5195-1 | 18 h | – | 25 µg/mL
O=C(O)c1ccccn1 | – | NDM-1 producing | compound alone | – | > 2000 µM
CC[C@H](C)[C@H](NC(=O)[C@H](CC(C)C)NC(=O)[C@H](CCCNC(=N)N)NC(=O)[C@@H](N)CCCNC(=N)N)C(=O)N[C@@H](CCCNC(=N)N)C(=O)N[C@@H](CCCCN)C(=O)N[C@@H](CC(C)C)C(=O)N[C@@H](CCCCN)C(=O)NCC(=O)N1CCC[C@H]1C(=O)N[C@@H](CCCCN)C(=O)N[C@H](C(=O)N[C@@H](Cc1ccc(O)cc1)C(=O)N[C@@H](CC(C)C)C(=O)N[C@@H](Cc1ccc(O)cc1)C(=O)N[C@@H](Cc1ccccc1)C(=O)N[C@@H](CCCCN)C(=O)N[C@@H](CC(C)C)C(=O)N[C@@H](CCC(N)=O)C(=O)N[C@@H](CC(C)C)C(=O)N[C@@H](CC(C)C)C(=O)N[C@@H](CCCCN)C(=O)N[C@@H](CCCCN)C(N)=O)[C@@H](C)CC | broth microdilution | KCTC 1682, Mueller-Hinton broth | 24 h, 37 °C | – | 16 µM
CC1(C)S[C@@H]2[C@H](NC(=O)C(C(=O)O)c3ccccc3)C(=O)N2[C@H]1C(=O)O (some centres unmarked) | broth microdilution | Keio mutant JW0587-1 | 18 h, enterobactin-related gene | – | 6.25 µg/mL

Repeated from above:
Compound | test | test system | conditions | how to read | MIC
CC[C@H](C)[C@H](NC(=O)CN)C(=O)N[C@@H](CC(C)C)C(=O)N[C@@H](CC(=O)O)C(=O)N[C@@H](C)C(=O)N[C@H](C(=O)N[C@@H](CCCCN)C(=O)N[C@@H](C)C(=O)N[C@H](C(=O)N[C@@H](C)C(=O)N[C@@H](CCCCN)C(=O)N[C@@H](C)C(=O)N[C@H](C(=O)N[C@@H](CCCCN)C(=O)N[C@@H](C)C(=O)N[C@@H](CCCCN)C(=O)N[C@@H](C)C(=O)NCC(N)=O)[C@@H](C)CC)[C@@H](C)CC)[C@@H](C)CC | – | ATCC 25922, Mueller-Hinton broth | 12 h, 37 °C | – | 8 µg/mL
CC[C@H](C)[C@H](NC(=O)[C@H](CC(C)C)NC(=O)[C@@H](NC(=O)[C@H](CCCNC(=N)N)NC(=O)[C@H](CCCNC(=N)N)NC(=O)[C@H](CCCNC(=N)N)NC(=O)[C@@H](N)CCCNC(=N)N)[C@@H](C)CC)C(=O)N[C@@H](CCCCN)C(=O)N[C@@H](CCCCN)C(=O)N[C@H](C(=O)N[C@@H](CC(C)C)C(=O)N[C@@H](CCCCN)C(=O)N[C@@H](CC(C)C)C(=O)N[C@@H](CCCCN)C(=O)N[C@@H](CO)C(=O)N[C@@H](CO)C(=O)N[C@@H](C)C(=O)N[C@@H](Cc1ccc(O)cc1)C(N)=O)C(C)C | checkerboard | – | 24 h, 37 °C, alone, rifampicin plate | – | 32 µM
